Published values collected from several papers.
Protocols differ between the studies behind these lines. “And” joins repeats or separate records; there may be more than shown. ± marks the error that the study gave.
TOPBP1: DNA topoisomerase 2-binding protein 1 (TOPBP1, Homo sapiens, UniProt Q92547)
Chain of UniProt P08191 (whole entry, looked up): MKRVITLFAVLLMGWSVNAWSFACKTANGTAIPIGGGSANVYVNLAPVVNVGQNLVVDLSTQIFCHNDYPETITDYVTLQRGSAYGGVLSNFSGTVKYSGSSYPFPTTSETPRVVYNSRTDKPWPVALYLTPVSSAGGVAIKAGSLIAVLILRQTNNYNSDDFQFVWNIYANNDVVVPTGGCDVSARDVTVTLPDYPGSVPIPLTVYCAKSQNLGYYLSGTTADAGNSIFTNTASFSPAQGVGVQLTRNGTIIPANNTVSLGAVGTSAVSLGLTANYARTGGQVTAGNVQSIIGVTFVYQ
Chain of UniProt Q92547 (whole entry, looked up): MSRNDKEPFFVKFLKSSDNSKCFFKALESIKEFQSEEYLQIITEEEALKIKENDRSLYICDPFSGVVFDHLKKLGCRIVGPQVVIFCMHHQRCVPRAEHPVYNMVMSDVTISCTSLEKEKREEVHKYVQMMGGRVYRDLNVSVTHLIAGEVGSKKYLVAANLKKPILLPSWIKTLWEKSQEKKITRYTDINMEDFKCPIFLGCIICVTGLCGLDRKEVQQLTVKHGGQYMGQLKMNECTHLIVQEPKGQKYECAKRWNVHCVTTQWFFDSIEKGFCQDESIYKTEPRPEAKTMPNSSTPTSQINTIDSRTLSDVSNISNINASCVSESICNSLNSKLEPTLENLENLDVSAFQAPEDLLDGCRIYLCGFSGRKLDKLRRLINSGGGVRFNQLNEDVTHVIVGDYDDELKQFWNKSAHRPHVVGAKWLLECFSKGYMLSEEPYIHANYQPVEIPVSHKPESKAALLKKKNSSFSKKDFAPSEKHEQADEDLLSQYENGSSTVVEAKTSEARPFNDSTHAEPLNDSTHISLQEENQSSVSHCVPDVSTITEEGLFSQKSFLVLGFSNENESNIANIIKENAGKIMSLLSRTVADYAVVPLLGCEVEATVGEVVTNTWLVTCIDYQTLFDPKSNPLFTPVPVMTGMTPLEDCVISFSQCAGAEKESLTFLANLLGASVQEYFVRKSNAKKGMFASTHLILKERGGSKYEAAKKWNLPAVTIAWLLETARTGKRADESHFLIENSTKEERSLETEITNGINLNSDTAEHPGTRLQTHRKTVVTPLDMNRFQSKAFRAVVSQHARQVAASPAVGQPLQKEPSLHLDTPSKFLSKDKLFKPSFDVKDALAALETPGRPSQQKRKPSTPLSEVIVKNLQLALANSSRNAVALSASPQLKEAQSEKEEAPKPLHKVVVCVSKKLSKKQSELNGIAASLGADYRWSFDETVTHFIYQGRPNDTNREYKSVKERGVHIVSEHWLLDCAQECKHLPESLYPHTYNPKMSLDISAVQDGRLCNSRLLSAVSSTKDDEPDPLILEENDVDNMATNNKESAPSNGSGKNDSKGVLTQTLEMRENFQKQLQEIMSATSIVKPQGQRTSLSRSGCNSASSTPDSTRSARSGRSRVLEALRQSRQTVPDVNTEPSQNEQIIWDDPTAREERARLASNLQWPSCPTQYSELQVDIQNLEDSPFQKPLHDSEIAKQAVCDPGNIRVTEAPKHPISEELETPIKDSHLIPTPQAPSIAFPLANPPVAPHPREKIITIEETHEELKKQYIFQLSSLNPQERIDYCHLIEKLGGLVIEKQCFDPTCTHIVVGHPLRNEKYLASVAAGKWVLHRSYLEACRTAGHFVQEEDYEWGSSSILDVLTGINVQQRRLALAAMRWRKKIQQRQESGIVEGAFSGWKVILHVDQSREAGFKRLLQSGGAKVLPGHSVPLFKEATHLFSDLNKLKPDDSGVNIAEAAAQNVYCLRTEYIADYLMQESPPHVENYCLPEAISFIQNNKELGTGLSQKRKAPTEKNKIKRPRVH
Chain of UniProt P62942 (whole entry, looked up): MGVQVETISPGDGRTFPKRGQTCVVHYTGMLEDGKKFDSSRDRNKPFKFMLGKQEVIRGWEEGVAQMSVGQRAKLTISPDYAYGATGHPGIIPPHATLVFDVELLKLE
Chain of UniProt P06702 (whole entry, looked up): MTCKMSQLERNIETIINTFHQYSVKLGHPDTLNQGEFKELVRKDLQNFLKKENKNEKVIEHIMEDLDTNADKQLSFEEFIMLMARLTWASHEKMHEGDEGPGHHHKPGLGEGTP
Chain of UniProt P02466 (whole entry, looked up): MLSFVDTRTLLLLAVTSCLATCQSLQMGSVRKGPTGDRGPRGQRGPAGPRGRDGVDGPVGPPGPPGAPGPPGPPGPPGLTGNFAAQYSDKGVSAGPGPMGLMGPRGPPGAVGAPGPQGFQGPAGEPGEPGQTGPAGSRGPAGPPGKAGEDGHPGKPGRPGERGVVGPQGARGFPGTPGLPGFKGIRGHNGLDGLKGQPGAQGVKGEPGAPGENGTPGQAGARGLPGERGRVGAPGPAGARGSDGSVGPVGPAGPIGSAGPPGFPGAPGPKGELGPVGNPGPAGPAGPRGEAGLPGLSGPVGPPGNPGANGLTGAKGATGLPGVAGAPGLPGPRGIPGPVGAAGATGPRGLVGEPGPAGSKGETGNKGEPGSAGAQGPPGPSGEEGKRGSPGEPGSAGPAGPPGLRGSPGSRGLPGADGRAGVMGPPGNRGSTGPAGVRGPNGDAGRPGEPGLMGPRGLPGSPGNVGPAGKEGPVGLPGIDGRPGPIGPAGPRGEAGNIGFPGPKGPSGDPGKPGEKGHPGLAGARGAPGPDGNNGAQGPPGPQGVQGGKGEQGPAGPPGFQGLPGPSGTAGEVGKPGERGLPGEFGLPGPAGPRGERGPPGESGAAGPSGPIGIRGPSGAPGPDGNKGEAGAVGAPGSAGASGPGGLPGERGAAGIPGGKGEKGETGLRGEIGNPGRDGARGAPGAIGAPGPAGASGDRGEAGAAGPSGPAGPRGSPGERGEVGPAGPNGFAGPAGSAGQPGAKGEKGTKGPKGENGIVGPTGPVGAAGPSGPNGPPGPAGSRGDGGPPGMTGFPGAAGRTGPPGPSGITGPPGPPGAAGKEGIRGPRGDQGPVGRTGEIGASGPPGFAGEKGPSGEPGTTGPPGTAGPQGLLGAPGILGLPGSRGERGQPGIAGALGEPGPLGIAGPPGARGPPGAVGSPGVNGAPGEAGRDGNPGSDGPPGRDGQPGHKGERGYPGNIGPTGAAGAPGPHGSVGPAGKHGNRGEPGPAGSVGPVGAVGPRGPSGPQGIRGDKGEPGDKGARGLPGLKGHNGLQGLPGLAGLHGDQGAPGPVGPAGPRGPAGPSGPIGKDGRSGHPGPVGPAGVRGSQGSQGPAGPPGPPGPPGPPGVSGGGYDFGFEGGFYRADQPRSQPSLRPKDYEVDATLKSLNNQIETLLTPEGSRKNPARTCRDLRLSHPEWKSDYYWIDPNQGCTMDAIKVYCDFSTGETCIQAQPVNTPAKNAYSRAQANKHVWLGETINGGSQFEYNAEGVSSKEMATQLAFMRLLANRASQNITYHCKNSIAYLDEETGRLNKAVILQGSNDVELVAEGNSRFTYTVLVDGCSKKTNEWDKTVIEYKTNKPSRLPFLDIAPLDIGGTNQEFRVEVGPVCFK
Chain of UniProt P10636 (whole entry, looked up): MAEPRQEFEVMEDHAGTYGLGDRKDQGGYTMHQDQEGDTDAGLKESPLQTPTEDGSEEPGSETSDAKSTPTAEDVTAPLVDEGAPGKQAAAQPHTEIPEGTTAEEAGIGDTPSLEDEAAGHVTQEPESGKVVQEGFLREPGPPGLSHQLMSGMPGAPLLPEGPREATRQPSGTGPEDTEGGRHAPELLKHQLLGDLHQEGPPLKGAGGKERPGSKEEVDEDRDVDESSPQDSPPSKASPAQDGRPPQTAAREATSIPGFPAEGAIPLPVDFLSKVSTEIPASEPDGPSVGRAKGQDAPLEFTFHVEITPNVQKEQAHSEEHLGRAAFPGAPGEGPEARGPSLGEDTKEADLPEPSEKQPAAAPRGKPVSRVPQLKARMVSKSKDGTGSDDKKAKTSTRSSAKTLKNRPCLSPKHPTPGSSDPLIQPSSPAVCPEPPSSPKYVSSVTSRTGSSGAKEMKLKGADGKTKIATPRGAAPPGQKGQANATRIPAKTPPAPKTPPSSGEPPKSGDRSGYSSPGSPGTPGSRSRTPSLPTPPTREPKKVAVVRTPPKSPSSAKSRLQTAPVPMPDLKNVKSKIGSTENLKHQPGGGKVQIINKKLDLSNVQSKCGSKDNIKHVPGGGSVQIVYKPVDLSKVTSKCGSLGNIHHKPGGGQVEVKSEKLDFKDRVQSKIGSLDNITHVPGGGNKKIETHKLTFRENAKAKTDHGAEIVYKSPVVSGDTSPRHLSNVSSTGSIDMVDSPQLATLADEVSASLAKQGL
Chain of UniProt P02754 (whole entry, looked up): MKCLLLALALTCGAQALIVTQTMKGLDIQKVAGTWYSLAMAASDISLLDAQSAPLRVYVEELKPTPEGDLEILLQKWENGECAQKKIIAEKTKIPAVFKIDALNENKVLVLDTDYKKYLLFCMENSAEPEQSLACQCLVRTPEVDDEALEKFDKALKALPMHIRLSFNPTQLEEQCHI
Chain of UniProt P04756 (whole entry, unmodified, looked up): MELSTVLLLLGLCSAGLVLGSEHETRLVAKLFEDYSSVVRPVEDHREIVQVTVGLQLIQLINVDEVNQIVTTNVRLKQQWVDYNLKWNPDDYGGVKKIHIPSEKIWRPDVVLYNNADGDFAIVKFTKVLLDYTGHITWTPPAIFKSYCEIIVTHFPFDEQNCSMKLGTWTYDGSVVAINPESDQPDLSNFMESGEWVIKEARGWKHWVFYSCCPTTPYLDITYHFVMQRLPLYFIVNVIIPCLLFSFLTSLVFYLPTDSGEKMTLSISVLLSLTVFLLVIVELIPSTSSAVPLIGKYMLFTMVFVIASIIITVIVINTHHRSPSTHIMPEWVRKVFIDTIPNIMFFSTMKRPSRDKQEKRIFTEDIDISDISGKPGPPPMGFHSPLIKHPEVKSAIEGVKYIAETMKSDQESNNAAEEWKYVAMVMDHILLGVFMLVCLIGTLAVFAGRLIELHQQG

`OC(Cc1cc(-c2ccc(C(O)C(F)(F)F)s2)sc1-c1ccc(-c2sc(-c3ccc(C(O)C(F)(F)F)s3)cc2CC(O)C(F)(F)F)s1)C(F)(F)F` (stereo not drawn) has a Kd of 1.31 µM (Microtubule-associated protein tau, 0N4R isoform, aggregated (MAPT, Homo sapiens, UniProt P10636); binding, fluorescence; 5% sucrose tau fraction).
`CSCC[C@@H]1NC(=O)[C@H](C(C)C)NC(=O)[C@H](CCCNC(=N)N)NC(=O)[C@@H]2CCCN2C(=O)CNC(=O)[C@@H](NC(=O)CNC(=O)[C@H](CO)NC(=O)CNC(=O)[C@H](CO)NC(=O)CCCC[C@@H]2SC[C@@H]3NC(=O)N[C@@H]32)CSSC[C@@H](C(N)=O)NC(=O)[C@@H]2CCCN2C(=O)CNC(=O)[C@H](CCC(=O)O)NC(=O)[C@H](CC(=O)O)NC(=O)[C@H](CC(=O)O)NC(=O)CNC(=O)[C@H](CC(C)C)NC(=O)[C@H](Cc2c[nH]cn2)NC(=O)[C@H](CC(C)C)NC(=O)CNC(=O)[C@H](Cc2c[nH]cn2)NC1=O` has a Kd of 0.9 ± 0.4 µM (Col1a1/Col1a2 (Rattus norvegicus, UniProt P02454+P02466); binding, bio-layer interferometry; biotinylated peptide on streptavidin biosensor; with: collagen 0 to 8 µM).
The Kd of `CCc1nc2cc3ccccc3cc2cc1C(=O)N1CCC[C@H]1C(=O)N[C@@H](CCC/C=C\CCC[C@H](NC(=O)[C@@H]1CCCN1C(=O)c1cc2cc3ccccc3cc2nc1CC)C(=O)N[C@@H](CCCCN)C(=O)NCCCN)C(=O)N[C@@H](CCCCN)C(=O)NCCCN` is reported as 0.0787 µM ((CUG)10 RNA; SPR).
The Kd of `O=C(O)CCC(=O)c1cccc(NS(=O)(=O)c2c[nH]c3ncccc23)c1` is reported as > 1000 µM (Ubiquitin carboxyl-terminal hydrolase 13, ZnF-UBD domain (USP13, Homo sapiens, UniProt Q92995)).
The Kd of `Cn1ncc2cc(-c3cncc(Cl)c3N3CCC4(CCNC4=O)CC3)ccc21` is reported as 5.55 µM (CDC42BPA (Homo sapiens, UniProt Q5VT25); cell-free assay; lysate).
`C=CC(=O)N1C[C@H](C)N(c2nc(OC[C@@]34CCCN3C[C@H](F)C4)nc3c(F)c(-c4ccc(F)c5sc(N)c(C#N)c45)c(C(F)(F)F)cc23)C[C@H]1C` gave a Kd of 14 ± 8.1 µM (GTPase KRas, GppNHp-bound (KRAS, Homo sapiens, UniProt P01116); microscale thermophoresis).
For `COc1ccc(-c2coc3cc(O)cc(O)c3c2=O)cc1`, the Kd was 17.9 µM (HSD3B1 (Homo sapiens, UniProt P14060); binding, SPR).
The Kd of `C[n+]1c(/C=C/c2ccc(N(c3ccccc3)c3ccccc3)cc2)cc(/C=C2\Sc3ccccc3N2CCCN2CCCC2)c2ccccc21` is reported as 4.69 µM (Pu22 DNA; isothermal titration calorimetry; pH 7.4, 25 °C, 2% DMSO).
With `CC(C(=O)O)c1ccc2c(c1)CC(=O)c1ccccc1S2` (stereo not drawn) the Kd was 120 µM (TOPBP1; binding, NMR).
`CCCC[C@@H]1NC(=O)[C@H](Cc2ccc(O)cc2)NC(=O)[C@@H]2CCCN2C(=O)[C@H](CC(=O)O)NC(=O)[C@H](C)NC(=O)[C@H](Cc2ccccc2)NC(=O)[C@@H]2CSCCC(=O)N3CN(CN(C3)C(=O)CCSC[C@@H](C(=O)N[C@@H](C)C(N)=O)NC1=O)C(=O)CCSC[C@H](NC(C)=O)C(=O)N[C@@H](CC(C)(C)C)C(=O)N1CCC[C@H]1C(=O)N[C@@H](CCC(=O)O)C(=O)N[C@H](CCCCNC(=O)CCc1cn(CCOCCOCCOCCN(CCOCCOCCOCCC(=O)N[C@H]3CSCCC(=O)N4CN5CN(C4)C(=O)CCSC[C@H](NC(=O)[C@@H](CC(=O)O)NC(=O)[C@H](Cc4cccc6ccccc46)NC(=O)[C@@H]4CCCN4C3=O)C(=O)N[C@@H](CCSC)C(=O)N[C@@H](CCCCNC(=N)N)C(=O)N[C@@H](CC(=O)O)C(=O)N[C@@H](Cc3c[nH]c4ccccc34)C(=O)N[C@@H](CO)C(=O)N[C@@H]([C@@H](C)O)C(=O)N3CCC[C@H]3C(=O)N3C[C@H](O)C[C@H]3C(=O)N[C@@H](Cc3c[nH]c4ccccc34)C(=O)N[C@H](C(N)=O)CSCCC5=O)CCOCCOCCOCCn3cc(CCC(=O)NCCCC[C@H]4NC(=O)[C@H](CCC(=O)O)NC(=O)[C@@H]5CCCN5C(=O)[C@H](CC(C)(C)C)NC(=O)[C@@H](NC(C)=O)CSCCC(=O)N5CN6CN(C5)C(=O)CCSC[C@H](NC(=O)[C@H](Cc5ccc(O)cc5)NC(=O)[C@@H]5CCCN5C4=O)C(=O)N[C@@H](Cc4ccccc4)C(=O)N[C@@H](C)C(=O)N[C@@H](CC(=O)O)C(=O)N4CCC[C@H]4C(=O)N[C@@H](Cc4ccc(O)cc4)C(=O)N[C@@H](CCCC)C(=O)N[C@H](C(=O)N[C@@H](C)C(N)=O)CSCCC6=O)nn3)nn1)C(=O)N1CCC[C@H]1C(=O)N[C@@H](Cc1ccc(O)cc1)C(=O)N2` has a Kd of > 0.2 µM (Nectin-2 (NECTIN2, Homo sapiens, UniProt Q92692); SPR).
`CCc1nc2cc3ccccc3cc2cc1C(=O)N1CCC[C@H]1C(=O)N[C@@H](C/C=C\C[C@H](NC(=O)[C@@H]1CCCN1C(=O)c1cc2cc3ccccc3cc2nc1CC)C(=O)N[C@@H](CCCCN)C(=O)NCCCN)C(=O)N[C@@H](CCCCN)C(=O)NCCCN` has a Kd of 0.038 µM ((CUG)10 RNA; SPR).
With `C[N+]1(C)CCCC1` the Kd was 227 µM (Chrnd/Chrna1/Chrne (Mus musculus, UniProt P02716+P04756+P20782, G173K/S470W); single-channel kinetics; K chain side site).
`Cc1c[nH]c2nccc(-c3ccc(C(=O)N[C@@H]4c5c(F)cc(C(F)F)cc5C[C@@H]4O)cn3)c12` has a Kd of 3 µM (Ribosomal protein S6 kinase alpha-4, C-terminal kinase domain (RPS6KA4, Homo sapiens, UniProt O75676); binding, competition with immobilised ligand).
For `NS(=O)(=O)c1cc(C(=O)NCCCC(=O)O)c(NC2CCCCC2)cc1Cl`, the Kd was 0.22 µM (CA14 (Homo sapiens, UniProt Q9ULX7); pH 7).
The Kd of `CCCCCCCO[C@H]1O[C@H](CO)[C@@H](O)[C@H](O)[C@@H]1O` is reported as 0.0386 µM and 0.0344 µM (Type 1 fimbrin D-mannose specific adhesin, lectin domain (fimH, Escherichia coli K-12, UniProt P08191); binding, isothermal titration calorimetry; 37 °C, individual titrations).
`CCc1nc2cc3ccccc3cc2cc1C(=O)N[C@@H](CCCCN)C(=O)N[C@@H](C/C=C/C[C@H](NC(=O)[C@H](CCCCN)NC(=O)c1cc2cc3ccccc3cc2nc1CC)C(=O)N1CCC[C@H]1C(=O)NCCCN)C(=O)N1CCC[C@H]1C(=O)NCCCN` has a Kd of 0.123 µM ((CUG)10 RNA; SPR).
`O=C(O)CC12CC3CC(CC(C3)C1)C2` gave a Kd of 120 µM (TOPBP1; binding, NMR).
`CC(C)=CCC/C(C)=C/C=C/C(C)=C/C=C/C(C)=C/C=C/C=C(C)/C=C/C=C(C)/C=C/C=C(\C)CCC=C(C)C` has a Kd of 47.2 µM (Beta-lactoglobulin (LGB, Bos taurus, UniProt P02754); binding, ITC).
`CCCc1cc2cc(-n3nc(C(F)F)c4c3CC3(CCC3)CC4=O)cc(N3CCC(O)CC3)c2c(=O)[nH]1` has a Kd of 1.86 µM (HSP90AB1 (Homo sapiens, UniProt P08238); fluorescence polarization; 24 h, 4 °C, with: FITC-geldanamycin tracer).
With `NCCCC[C@H](NC(=O)[C@H](C/C=C/C[C@H](NC(=O)[C@@H]1CCCN1)C(=O)N[C@@H](CCCCN)C(=O)NCCCN)NC(=O)[C@@H]1CCCN1)C(=O)NCCCN` the Kd was 0.421 µM ((CUG)10 RNA; SPR).
With `C=C[C@H]1CN([C@@H](C)c2cn(CCCNC(=O)CCc3ccc4n3[B-](F)(F)[N+]3=C(c5ccc[nH]5)C=CC3=C4)nn2)C(=O)[C@@H]2CCC[C@H]1N2S(=O)(=O)c1cc(Cl)cc(Cl)c1` the Kd was 0.006 µM (FKBP1A (Homo sapiens, UniProt P62942); binding, FP).
With `COC(=O)CCCNC(=O)c1cc(S(N)(=O)=O)c(Cl)cc1NC1CCCCC1` the Kd was > 200 µM (CA3 (Homo sapiens, UniProt P07451); pH 7).
`CC(C)(C)n1cc(CN(Cc2cn(CCOCCOCCOCCOCCOCCO)nn2)Cc2cn(C(C)(C)C)nn2)nn1` has a Kd of 0.000259 ± 4.94e-05 µM (copper(I); bicinchoninic acid competition).
With `Cc1ccc(C(=NO)c2oc3ccc4c(C)cc(=O)oc4c3c2-c2ccccc2)cc1` the Kd was 9.6 µM (Protein S100-A9 (S100A9, Homo sapiens, UniProt P06702); binding, SPR).

A few entries again:
The Kd of `C[n+]1c(/C=C/c2ccc(N(c3ccccc3)c3ccccc3)cc2)cc(/C=C2\Sc3ccccc3N2CCCN2CCCC2)c2ccccc21` is reported as 4.69 µM (Pu22 DNA; isothermal titration calorimetry; pH 7.4, 25 °C, 2% DMSO).
With `CC(C(=O)O)c1ccc2c(c1)CC(=O)c1ccccc1S2` (stereo not drawn) the Kd was 120 µM (TOPBP1; binding, NMR).
`CCCC[C@@H]1NC(=O)[C@H](Cc2ccc(O)cc2)NC(=O)[C@@H]2CCCN2C(=O)[C@H](CC(=O)O)NC(=O)[C@H](C)NC(=O)[C@H](Cc2ccccc2)NC(=O)[C@@H]2CSCCC(=O)N3CN(CN(C3)C(=O)CCSC[C@@H](C(=O)N[C@@H](C)C(N)=O)NC1=O)C(=O)CCSC[C@H](NC(C)=O)C(=O)N[C@@H](CC(C)(C)C)C(=O)N1CCC[C@H]1C(=O)N[C@@H](CCC(=O)O)C(=O)N[C@H](CCCCNC(=O)CCc1cn(CCOCCOCCOCCN(CCOCCOCCOCCC(=O)N[C@H]3CSCCC(=O)N4CN5CN(C4)C(=O)CCSC[C@H](NC(=O)[C@@H](CC(=O)O)NC(=O)[C@H](Cc4cccc6ccccc46)NC(=O)[C@@H]4CCCN4C3=O)C(=O)N[C@@H](CCSC)C(=O)N[C@@H](CCCCNC(=N)N)C(=O)N[C@@H](CC(=O)O)C(=O)N[C@@H](Cc3c[nH]c4ccccc34)C(=O)N[C@@H](CO)C(=O)N[C@@H]([C@@H](C)O)C(=O)N3CCC[C@H]3C(=O)N3C[C@H](O)C[C@H]3C(=O)N[C@@H](Cc3c[nH]c4ccccc34)C(=O)N[C@H](C(N)=O)CSCCC5=O)CCOCCOCCOCCn3cc(CCC(=O)NCCCC[C@H]4NC(=O)[C@H](CCC(=O)O)NC(=O)[C@@H]5CCCN5C(=O)[C@H](CC(C)(C)C)NC(=O)[C@@H](NC(C)=O)CSCCC(=O)N5CN6CN(C5)C(=O)CCSC[C@H](NC(=O)[C@H](Cc5ccc(O)cc5)NC(=O)[C@@H]5CCCN5C4=O)C(=O)N[C@@H](Cc4ccccc4)C(=O)N[C@@H](C)C(=O)N[C@@H](CC(=O)O)C(=O)N4CCC[C@H]4C(=O)N[C@@H](Cc4ccc(O)cc4)C(=O)N[C@@H](CCCC)C(=O)N[C@H](C(=O)N[C@@H](C)C(N)=O)CSCCC6=O)nn3)nn1)C(=O)N1CCC[C@H]1C(=O)N[C@@H](Cc1ccc(O)cc1)C(=O)N2` has a Kd of > 0.2 µM (Nectin-2 (NECTIN2, Homo sapiens, UniProt Q92692); SPR).
